Experimental data of several laboratories.
Protocols differ between the studies behind these lines. Several values in a cell are separate wells, animals, samples, runs or records.
TEK: Angiopoietin-1 receptor (TEK, Homo sapiens, UniProt Q02763)

CNS(=O)(=O)Nc1nccc(Cc2c(C)c3ccc(Oc4ncccc4F)cc3oc2=O)c1F  remaining binding (TEK; cell-free assay, competition with immobilised ligand; 10 µM): 100%
C=CC(=O)N1CCc2ccc(-n3c(=O)ccc4cnc5ccc(-c6cnn(C)c6)cc5c43)cc21  remaining binding (TEK; KINOMEscan; 1 µM; relative to: DMSO control): 73%
CNC(=O)C[C@H](Cc1ccc(C#N)cc1)NC(=O)c1cc(-c2ccc(CN[C@H](C)c3ccc(C)cc3)o2)ccc1Cl  activity vs control (TEK; enzyme activity, inhibitor; 1 µM): 117%
CNC1C[S+]2CC[S+]3CC[S+](C1)[Ru-4]321([N]=C=S)[n]2c3ccc(OC)cc3c3c4c(c5cc(F)c[n+]1c5c32)C(=O)NC4=O (centres unmarked)  remaining binding (TEK; KinomeScan; 0.1 µM; relative to: untreated): 88%
CCN1CCN(Cc2ccc(NC(=O)c3ccc(C)c(NC(=O)c4cncc(-c5cnn(C)c5)c4)c3)cc2C(F)(F)F)CC1  remaining binding (TEK; binding, competition with immobilised ligand; 1 µM): 34%
C=CC(=O)Nc1cccc(-c2cnc3[nH]cc(C(=O)NC(C)(C)C)c3n2)c1  inhibition (TEK; kinase activity; 0.1 µM): -1% and 1%
O=C(Cc1ccc(OCc2ccccc2)cc1)NC1(C(=O)O)CCN(C(=O)c2ccc(-c3cccc(Cl)c3)cc2)CC1  activity vs control (TEK; enzyme activity, inhibitor; 10 µM): 167%
COc1cc(Nc2nccc(-c3cnn4nc(OC)ccc34)n2)cc(C(F)(F)F)c1  remaining binding (TEK; binding, competition with immobilised ligand; 1 µM): 100%
COc1ccc(NC(=O)Nc2ccc3c(c2)C(=O)N(C(C)CO)CC(C)C(CN(C)Cc2ccc4c(c2)OCO4)O3)cc1 (centres unmarked)  remaining activity (Angiopoietin-1 receptor (TEK, Homo sapiens, UniProt Q02763, Y897S); kinase activity; 0.03 µM; relative to: control): 83%
CN1CCN(Cc2ccc(NC(=O)c3cccc(C#Cc4cnc(N)c5ncccc45)c3)cc2C(F)(F)F)CC1  remaining binding (TEK; cell-free assay, competition with immobilised ligand; 50 nM): 0.9%
C=CC(=O)N1CCCC(n2c(=O)c3ncccc3n(Cc3ccc(Oc4ccccc4)cc3)c2=O)C1 (centres unmarked)  remaining binding (TEK; cell-free assay, competition with immobilised ligand; 1 µM): 89%
Cc1ccc(C(=O)Nc2ccc(CN3CCN(C)CC3)c(C(F)(F)F)c2)cc1C#Cc1cnc2cccnn12  Hill slope (TEK; NanoBRET target engagement; human cells): 0.779
Cc1cccc(O[C@H]2CCC[C@@H](C(C)CNCc3ccncc3)C2)c1 (relative stereo)  inhibition (TEK; cell-free assay; 10 µM): -1%
Cc1cnc2nc1Nc1cccc(c1)COC/C=C/COCc1cc(ccc1OCCN1CCOCC1)N2  remaining binding (TEK; binding, competition with immobilised ligand; 0.1 µM): 100%
CC(=O)N1c2ccc(-c3ccc(CNC(=O)c4cn5cc(-c6cnc(N)nc6)nc(N6CCOCC6)c5n4)cc3)cc2CC[C@@H]1C  remaining binding (TEK; KINOMEscan; 10 µM): 94%
COCC12C(=O)NC3C4(C(OC)CC1O)C1CC5(O)C(OC)C(O)C(OC(C)=O)(C1C5OC(=O)c1ccccc1)C3(O)C(OC)C24 (centres unmarked)  remaining activity (TEK; kinase activity, inhibitor, ProQinase kinase profiling; 25 µM; relative to: control): 108% and 101%
CNC(=O)C1CCN(c2cc(C)c(F)cc2NC(=O)c2ccc(-c3cc(O)ccc3C)c(C)c2)CC1  remaining binding (TEK; binding, competition with immobilised ligand; 1 µM): 100%
COc1c(Cl)cccc1Nc1c(-c2ccncc2C#C[C@@]2(C)CCCN2C(=O)/C=C/CN(C)C)[nH]c2c1C(=O)NCC2  remaining binding (TEK; cell-free assay, competition with immobilised ligand; 3 µM): 97%
NC(=O)[C@@H](O)C[C@H]1CCc2sc3ncnc(O[C@H]4CC[C@H](N5CCOCC5)CC4)c3c21  inhibition (TEK; enzyme activity, inhibitor; 10 µM): 3%
Nc1ncc2c(n1)-c1c([nH]c3ccc(C4=CCOCC4)cc13)CCC2  remaining binding (TEK; binding, competition with immobilised ligand; 1 µM): 100%
COc1c(OCCCN2CCOCC2)ccc2c1N=C(NC(=O)c1cnc(N)nc1)N1CCN=C21  remaining activity (TEK; kinase activity, inhibitor; 1 µM; relative to: untreated control): 102%
O=C=[N][Ru-4]123([n]4c5ccc(O)cc5c5c6c(c7cc(F)c[n+]1c7c54)C(=O)NC6=O)[S+]1CC[S+]2CC[S+]3CC1 (centres unmarked)  remaining activity (Angiopoietin-1 receptor (TEK, Homo sapiens, UniProt Q02763, R849W); enzyme activity; 100 nM, human enzyme, together with: 10 µM ATP; relative to: untreated): 98%
COc1ccc(O)cc1-c1c[nH]c2ncc(-c3cncc(C(=O)N(C)C)c3)cc12  inhibition (TEK; binding, competition with immobilised ligand; 0.2 µM): 8.72%

For quick reference, copied from above:
Cc1cccc(O[C@H]2CCC[C@@H](C(C)CNCc3ccncc3)C2)c1 (relative stereo)  inhibition (TEK; cell-free assay; 10 µM): -1%
Cc1cnc2nc1Nc1cccc(c1)COC/C=C/COCc1cc(ccc1OCCN1CCOCC1)N2  remaining binding (TEK; binding, competition with immobilised ligand; 0.1 µM): 100%
